Published values pooled from the literature.
A part holds a random share of what one study measured. Changes are numbered by the printed parent chain.

Series 1
Target: Histone acetyltransferase KAT6A, winged helix 2, GST fusion (KAT6A, Homo sapiens, UniProt Q92794, residues 85-181)
Technique: protein binding microarray
Form: double-stranded DNA, one strand shown
Medium: in vitro
Tested at: not given
Setting: 8-mer, flanks averaged, mean of 2 arrays, mostly near background
Reference: not given
Direction: higher = stronger binding
Construct (chain): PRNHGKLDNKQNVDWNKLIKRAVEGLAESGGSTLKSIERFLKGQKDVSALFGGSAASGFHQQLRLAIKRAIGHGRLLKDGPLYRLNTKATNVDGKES
Strand	E-score
AGCCGAAC	0.0782
ACCGGTCC	0.072
CCAACACC	-0.00334
AAGACAAT	-0.0475
CTAGTCGA	0.0959
ACCTCTCA	-0.0726
CTCTAGAA	-0.139
AAGCCGAC	0.134
ACAGATGT	-0.0758
GCTTCATA	-0.0114
CCGAGTCC	0.201
CCTATGGC	0.0213
CACCTTCC	0.0442
ACCTGTCG	0.048
GGACATCC	0.0944
GTTACCTA	-0.113
CACTCGCA	-0.0125
AGATCTGG	-0.0475
GAAATTAA	0.257

Series 2
Target: CCNE1, cyclin fold, Cln2 fusion (human)
Technique: yeast growth competition, sequencing
Medium: yeast
Setting: weak parent motif
Reference: not given
Direction: higher = stronger binding
Parent: SAMHD1 docking peptide (human); ASKSRVQLFKDDP
Change	normalised enrichment score
ASKSRVQLFKDVP [D12V]	0.294
ASKSRVQLFKDEP [D12E]	0.446
ASKRRVQLFKDDP [S4R]	0.232
AIKSRVQLFKDDP [S2I]	0.143
ASKSRVQLFKDRP [D12R]	0.128
ASKSRVQLFQDDP [K10Q]	0.314
ASKSRVQDFKDDP [L8D]	0.109
ASVSRVQLFKDDP [K3V]	0.331
ASKSRVNLFKDDP [Q7N]	0.0984
ASKSFVQLFKDDP [R5F]	0.113
ASKSLVQLFKDDP [R5L]	0.027
ASKSRRQLFKDDP [V6R]	3.38
ASKSRNQLFKDDP [V6N]	-0.114
ASHSRVQLFKDDP [K3H]	0.334
ASGSRVQLFKDDP [K3G]	0.378
ASKSSVQLFKDDP [R5S]	-0.0604
ASKSRVQLHKDDP [F9H]	0.0629
ASKSRKQLFKDDP [V6K]	0.898
ADKSRVQLFKDDP [S2D]	0.294
ASKSRVQLFKDYP [D12Y]	0.664
ASKSRVQLFKDLP [D12L]	0.0649
ASKSRVQLFKDAP [D12A]	0.38
ASKSRVQLFKLDP [D11L]	-0.109
ASKSAVQLFKDDP [R5A]	0.0712
ASKLRVQLFKDDP [S4L]	0.0987

Series 3
Target: RING finger protein unkempt homolog, zinc fingers 1-6, GST-SBP tag (UNK, Homo sapiens, UniProt Q9C0B0, residues 30-357)
Technique: RNA Bind-n-Seq
Form: RNA
Medium: in vitro
Tested at: not given
Setting: RNA with constant flanks, human and mouse sites, ends assumed
Reference: input RNA pool
Direction: higher = stronger binding
All sequences stand within: GGGAGUUCUACAGUCCGACGAUC … CAACAGAGGAUUGAGCAUCA
Residues (chain): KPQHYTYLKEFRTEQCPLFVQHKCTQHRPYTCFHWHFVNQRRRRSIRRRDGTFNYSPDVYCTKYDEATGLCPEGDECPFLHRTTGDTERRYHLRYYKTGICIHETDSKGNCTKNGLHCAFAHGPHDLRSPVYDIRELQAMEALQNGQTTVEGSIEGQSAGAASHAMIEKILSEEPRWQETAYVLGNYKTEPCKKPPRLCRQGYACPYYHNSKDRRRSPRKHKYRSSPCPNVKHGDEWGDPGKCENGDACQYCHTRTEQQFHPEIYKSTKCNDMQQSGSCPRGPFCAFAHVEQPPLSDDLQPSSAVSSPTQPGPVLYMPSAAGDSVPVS
Strand	bound/input enrichment [ratio]
GUUAAGAUGAAGAUGAAGUACUACAUCGAGUACAUGGAGAGCACCCGCGAUGACAGUCCCCUUUACAUCUUCGAUAGCAGCUAUGGCGAACACCCCAAAAGAAGGAAACUUUUGGAAGAC	0.267
AUUAAUGCGCUAAUGCACGCAUUGACUGACUUAAGAAAGAAGAAUCCCAACAUAAAAAGUUUGGUUGUUUCUCAGUUUACAACAUUCCUGUCUUUAAUAGAAAUACCACUUAAAGCCUCU	0.265
UGGCAAAUGUAGCCCUGCAUCCUCCAGUGUUACCUGGUGUAGAUUUUUUUUUCUGUACCUUUCUAAACCUCUCUUCCCUCUGUGAUGGUUUUGUGUUUAAACAGUCAUCUUCUUUUAAAU	1.21
CUCCUUCAGGACAUUAUUCUCCAAGUAUUUAAAUAUUUGCCUCUUCUUGACCGGGCUCAUGCUUCACAAGUUUGCCGCAACUGGAACCAGGUAUUUCACAUGCCUGACUUGUGGAGAUGU	0.286
GGGAGGAAUGAAUUUAUCUAGCAAGCUGGCCCAGCUCACUUGUCAUGGCAAUCUUUGCCAUAGCUUUCAGUCUUUCAACACUUCCUACACAGAUACAGGAUUAUGGGGACUGUAUAUGGU	0.324
ACCUGAGGACAUUCUGAGACUUCCUUUCUUCCAUUUUUUUUUUUUUUAAAGAGCCUGUGAUAGUUGCUGUGGGCAGCCAGUUCCUGGGGCUUCCUCUUGGGCCCCCUGCACUCGGUCUCC	0.863
GUCAUUCAGAUGGACUUCUCUGCAGAUAGCAGACAUCUCCAGGUUUCUAGUGGCUGCUAUAAACGGCAUGUCUAUGAAGUGCCUUCAGGAAAACACCUUGUGGAUCAUGCUGCCAUUGAC	0.199
GAAGUCAGGAAAAAGUGUGCUGAGGAGGCCCAGCUGAUUUCUUCCCUGAAAGCAGAAAUAACUAGUCAAGAAUCUCAGAUCUCCAGUUAUGAGGAAGAACUGUUGAAAGCUAGAGAAGAA	0.546
GCAGUUACCAGUUUCAGCAGGCUUUGCUUUUAUACUGUUGUGAAAUUUCAUCUCUCUGUGUAGCACCUUCCUUUUUUCCAUUGUAGAUAUAAAAAGUGACUUUUGCCUCAUGAAAGAGUU	1.64
CGGCUGGACGGAGGGCCUGUUAUGAACGCAGGCCACCCAAUGGGUGUGAACUCAGAUCCUUUCCUUAUGGCAGCAGGUUCUCUUGGUGGAAACCUGGCUCCAUUUCCAAGGAAUGCAGCU	0.0456
AAGUGGUUGCGGGAAAUAUUGAUCUGCAGGAAUAAAUUUCUUCUUAAAAAUAAGCAGGCAGAUAGAAGUUCCUGUCACUUUCUCCUUUUUUACGGGGUAGGAUGUGAUAUUCCUUCUAGU	0.289

Series 4
Target: ABI1, truncated, D143A, DHFR fusion (Arabidopsis thaliana)
Technique: DHFR PCA, deep sequencing
Medium: yeast
Setting: methotrexate growth selection, single substitutions
Together with: (+)-ABA 0.39 µM
Reference: wild-type fitted maximum
Direction: higher = stronger binding
Parent: PYL1, truncated, DHFR fusion (Arabidopsis thaliana); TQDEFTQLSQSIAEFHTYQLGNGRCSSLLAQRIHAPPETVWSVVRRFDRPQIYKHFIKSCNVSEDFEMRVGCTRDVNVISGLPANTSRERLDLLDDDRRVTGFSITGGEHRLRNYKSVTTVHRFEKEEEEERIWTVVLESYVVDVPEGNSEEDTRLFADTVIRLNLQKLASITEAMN; partner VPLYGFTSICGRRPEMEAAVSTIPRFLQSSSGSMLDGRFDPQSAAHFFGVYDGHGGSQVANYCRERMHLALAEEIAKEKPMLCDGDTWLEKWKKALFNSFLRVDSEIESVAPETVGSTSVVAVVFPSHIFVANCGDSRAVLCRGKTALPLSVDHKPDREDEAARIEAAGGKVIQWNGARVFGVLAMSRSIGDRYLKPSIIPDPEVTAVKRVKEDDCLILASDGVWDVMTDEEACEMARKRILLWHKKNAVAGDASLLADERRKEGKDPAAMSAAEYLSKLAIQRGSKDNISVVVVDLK
Change	relative binding score
D48F	-1.94%
A158E	-5.59%
A35E	9.19%
S140L	-6.06%
E127W	20.9%
E152H	23.1%
E147L	19.4%
E64C	24%
E174I	-9.51%
I172W	-13.3%
L164D	25.9%
C60V	48.2%
Y115L	-6.98%
D96A	-5.32%
L28A	1.48%
N85I	65.6%
K126R	51%

Series 5
Target: CDC34 UBC core domain (UniProt P49427)
Technique: yeast two-hybrid
Medium: yeast
Setting: mostly zero background
Reference: not given
Direction: higher = stronger interaction
B1: NFX1 RING domain (UniProt Q12986); chain IEQLTTEKYECMVCCELVRVTAPVWSCQSCYHVFHLNCIKKWARSPASQADGQSGWRCPACQNVSAHVPNTY
B2: MKRN3 RING domain (UniProt Q13064); chain FAVQRGMDKVCGICMEVVYEKANPNDRRFGILSNCNHSFCIRCIRRWRSARQFENRIVKSCPQCRVTSELVIPSE
B3: ZMYND11 RING domain (UniProt Q15326); chain DEIDWETENHDWYCFECHLPGEVLICDLCFRVYHSKCLSDEFRLRDSSSPWQCPVCRSIKKKNTNKQEM
B4: CNOT4 RING domain (UniProt O95628); chain MSRSPDAKEDPVECPLCMEPLEIDDINFFPCTCGYQICRFCWHRIRTDENGLCPACRKPYPED
B5: RING1 RING domain (UniProt Q06587); chain SPRSLHSELMCPICLDMLKNTMTTKECLHRFCSDCIVTALRSGNKECPTCRKKLVSKRSLR
B6: RNF186 RING domain (UniProt Q9NXI6); chain HSGSTECDLECLVCREPYSCPRLPKLLACQHAFCAICLKLLLCVQDNTWSITCPLCRKVTAVPGGLI
B7: TRIM41 RING domain (UniProt Q8WV44); chain PVQTLQEEAVCAICLDYFTDPVSIGCGHNFCRVCVTQLWGGEDEEDRDELDREEEEEDGEEE
B8: RNF6 RING domain (UniProt Q9Y252); chain NSIDSELGKICSVCISDYVTGNKLRQLPCMHEFHIHCIDRWLSENCTCPICRQPVLGSNIAN
B9: HLTF RING domain (UniProt Q14527); chain LILSSGSDEECAICLDSLTVPVITHCAHVFCKPCICQVIQNEQPHAKCPLCRNDIHEDNLLE
B10: RNF182 RING domain (UniProt Q8N6D2); chain AESQASDELECKICYNRYNLKQRKPKVLECCHRVCAKCLYKIIDFGDSPQGVIVCPFCRFETCLPDDEV
Construct (chain): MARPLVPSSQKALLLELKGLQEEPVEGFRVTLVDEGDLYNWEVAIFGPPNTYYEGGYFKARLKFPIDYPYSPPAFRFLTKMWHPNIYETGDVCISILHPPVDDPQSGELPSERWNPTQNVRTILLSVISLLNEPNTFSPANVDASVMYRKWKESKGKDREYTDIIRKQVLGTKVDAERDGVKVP
Molecule	lacZ reporter activity
ASEEEFQFLRCQQCQAEAKCPKLLPCLHTLCSGCLEASGMQCPICQAPWPLGADTP (PML RING domain (UniProt P29590))	0
B1 (NFX1 RING domain)	0
B2 (MKRN3 RING domain)	0
B3 (ZMYND11 RING domain)	0
B4 (CNOT4 RING domain)	0
B5 (RING1 RING domain)	0
B6 (RNF186 RING domain)	0
DDVLTKDAGECVICLEELLQGDTIARLPCLCIYHKSCIDSWFEVNRSCPEHPAD (ZNRF1 RING domain (UniProt Q8ND25))	0
B7 (TRIM41 RING domain)	0
B8 (RNF6 RING domain)	0
B9 (HLTF RING domain)	0
B10 (RNF182 RING domain)	0

Some of these lines once more (series 2):
Change	normalised enrichment score
ASKSRRQLFKDDP [V6R]	3.38
ASKSRNQLFKDDP [V6N]	-0.114
ASHSRVQLFKDDP [K3H]	0.334
ASGSRVQLFKDDP [K3G]	0.378
ASKSSVQLFKDDP [R5S]	-0.0604
ASKSRVQLHKDDP [F9H]	0.0629
ASKSRKQLFKDDP [V6K]	0.898
ADKSRVQLFKDDP [S2D]	0.294
ASKSRVQLFKDYP [D12Y]	0.664
ASKSRVQLFKDLP [D12L]	0.0649
ASKSRVQLFKDAP [D12A]	0.38
ASKSRVQLFKLDP [D11L]	-0.109
ASKSAVQLFKDDP [R5A]	0.0712
